Experimental data gathered from unrelated publications.
Each numbered part is a random draw from the data of one study; scales do not carry over between parts. Substitutions count along the parent as printed.

Series 1
Target: UBE2U UBC core domain (UniProt Q5VVX9)
Chain of UniProt Q5VVX9 (whole entry, looked up): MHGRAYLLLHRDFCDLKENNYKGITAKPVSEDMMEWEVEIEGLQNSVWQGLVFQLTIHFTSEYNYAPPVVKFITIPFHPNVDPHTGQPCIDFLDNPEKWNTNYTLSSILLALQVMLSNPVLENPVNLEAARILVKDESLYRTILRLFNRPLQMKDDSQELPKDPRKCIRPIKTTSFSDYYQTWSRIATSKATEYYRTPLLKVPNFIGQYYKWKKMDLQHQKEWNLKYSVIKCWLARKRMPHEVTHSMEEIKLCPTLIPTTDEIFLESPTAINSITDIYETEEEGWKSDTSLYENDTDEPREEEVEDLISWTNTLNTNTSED
Method: yeast two-hybrid
Medium: yeast
Setting: mostly zero background
Baseline: not given
Direction: higher = stronger interaction
B1: ZMIZ2 RING domain (UniProt Q8NF64); chain GTIPGTPGPNGEDGVEQTAIKVSLKCPITFRRIQLPARGHDCRHIQCFDLESYLQLNCERGTWRCPVCNKTALLEGLEVDQYMLGILIYIQNSDYEEITIDPTCSWK
B2: SH3RF1 RING domain (UniProt Q7Z6J0); chain DESALLDLLECPVCLERLDASAKVLPCQHTFCKRCLLGIVGSRNELRCPECRTLVGSGVEEL
B3: TRIM62 RING domain (UniProt Q9BVG3); chain MACSLKDELLCSICLSIYQDPVSLGCEHYFCRRCITEHWVRQEAQGARDCPECRRTFAEPALAP
B4: MAP3K1 RING domain (UniProt Q13233); chain NSIKDEEEQMCPICLLGMLDEESLTVCEDGCRNKLHHHCMSIWAEECRRNREPLICPLCRSKWRSHDFYS
B5: MDM4 RING domain (UniProt O15151); chain MEDCQNLLKPCSLCEKRPRDGNIIHGRTGHLVTCFHCARRLKKAGASCPICKKEIQLVIKVF
B6: DZIP3 RING domain (UniProt Q86Y13); chain PDEEEEEEEPCVICHENLSPENLSVLPCAHKFHAQCIRPWLMQQGTCPTCRLHVLLPEEFP
Sequence	lacZ reporter activity
B1 (ZMIZ2 RING domain)	0
GSDDEEIPFKCFICRQSFQNPVVTKCRHYFCESCALQHFRTTPRCYVCDQQTNGVFNPA (RNF113A RING domain (UniProt O15541))	9070
B2 (SH3RF1 RING domain)	0
AMYLQENGIDCPKCKFSYALARGGCMHFHCTQCRHQFCSGCYNAFYAKNKC (RNF31 RING domain (UniProt Q96EP0))	2820
GSRLQEINDVCAICYHEFTTSARITPCNHYFHALCLRKWLYIQDTCPMCHQKVYIEDDIK (RNF139 RING domain (UniProt Q8WU17))	9470
B3 (TRIM62 RING domain)	0
KETIKKTTKPCPRCHVPVEKNGGCMHMKCPQPQCRLEWCWNCGCEWNRVCMG (PRKN RING domain (UniProt O60260))	0
YQNEVDDDLVCHICLQPLLQPLDTPCGHTFCYKCLRNFLQEKDFCPLDRKRLHFKLCKK (LNX2 RING domain (UniProt Q8N448))	5320
B4 (MAP3K1 RING domain)	10400
B5 (MDM4 RING domain)	12500
B6 (DZIP3 RING domain)	0

Series 2
Target: CCNE1, cyclin fold, Cln2 fusion (human)
Method: yeast growth competition, sequencing
Medium: yeast
Setting: strong parent motif
Baseline: not given
Direction: higher = stronger binding
Parent: PKMYT1 docking peptide (human); SFEPRNLLSLFED
Variant	normalised enrichment score
SFEPRNLESLFED [L8E]	-3.26
SFEPRNLLSLNED [F11N]	0.268
SFEPANLLSLFED [R5A]	1.19
SIEPRNLLSLFED [F2I]	0.219
SFEPRNLLSLFAD [E12A]	1.74
SFEPRNLLSLFND [E12N]	2.25
SFEPRNSLSLFED [L7S]	0.215
SFEPRNGLSLFED [L7G]	0.739
SFEPRNLLSLFRD [E12R]	1.65
SFEPRLLLSLFED [N6L]	0.924
SSEPRNLLSLFED [F2S]	0.0379
SFEPRNLYSLFED [L8Y]	0.736
SFEPRNLLFLFED [S9F]	2.31
SFTPRNLLSLFED [E3T]	2.19
VFEPRNLLSLFED [S1V]	2.27
SFEPCNLLSLFED [R5C]	1.19
SFLPRNLLSLFED [E3L]	1.23
SFEIRNLLSLFED [P4I]	-0.0344
SFEPRDLLSLFED [N6D]	1.36
AFEPRNLLSLFED [S1A]	1.86
SFEPRNCLSLFED [L7C]	0.599
SFAPRNLLSLFED [E3A]	1.92
SFEHRNLLSLFED [P4H]	-0.18
SFEPRNLLSLFEG [D13G]	1.52
SFEPRNLLSMFED [L10M]	1.38

Series 3
Target: Sal-like protein 4, full length isoform A (SALL4, Homo sapiens, UniProt Q9UJQ4, residues 1-1053)
Chain of UniProt Q9UJQ4 (whole entry, looked up): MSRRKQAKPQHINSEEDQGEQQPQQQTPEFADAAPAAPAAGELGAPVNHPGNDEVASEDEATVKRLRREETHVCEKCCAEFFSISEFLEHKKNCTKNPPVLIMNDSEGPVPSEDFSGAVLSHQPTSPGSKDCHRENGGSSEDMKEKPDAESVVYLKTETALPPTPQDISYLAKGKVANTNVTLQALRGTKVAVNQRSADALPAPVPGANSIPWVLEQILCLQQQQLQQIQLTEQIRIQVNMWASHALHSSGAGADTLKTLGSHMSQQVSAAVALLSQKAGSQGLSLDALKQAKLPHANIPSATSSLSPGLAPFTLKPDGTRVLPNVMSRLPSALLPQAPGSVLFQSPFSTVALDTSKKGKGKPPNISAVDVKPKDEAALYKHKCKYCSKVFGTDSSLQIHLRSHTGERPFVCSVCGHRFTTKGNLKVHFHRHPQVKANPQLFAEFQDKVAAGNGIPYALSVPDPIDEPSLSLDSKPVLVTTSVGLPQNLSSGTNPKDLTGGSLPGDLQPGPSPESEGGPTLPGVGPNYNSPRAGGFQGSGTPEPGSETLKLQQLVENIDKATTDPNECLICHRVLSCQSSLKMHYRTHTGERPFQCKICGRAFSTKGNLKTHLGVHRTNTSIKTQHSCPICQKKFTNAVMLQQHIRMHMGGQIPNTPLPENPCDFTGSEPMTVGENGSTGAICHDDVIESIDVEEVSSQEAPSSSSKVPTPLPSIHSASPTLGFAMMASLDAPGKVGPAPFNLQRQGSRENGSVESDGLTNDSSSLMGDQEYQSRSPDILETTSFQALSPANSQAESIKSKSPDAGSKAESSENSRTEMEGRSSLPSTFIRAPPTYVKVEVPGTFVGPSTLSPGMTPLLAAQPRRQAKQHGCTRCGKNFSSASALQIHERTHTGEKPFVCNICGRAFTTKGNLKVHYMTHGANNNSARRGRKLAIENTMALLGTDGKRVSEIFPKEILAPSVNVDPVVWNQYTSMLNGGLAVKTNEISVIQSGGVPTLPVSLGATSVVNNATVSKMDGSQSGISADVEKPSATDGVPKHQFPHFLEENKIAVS
Method: universal PBM
Molecule type: double-stranded DNA, one strand shown
Medium: in vitro
Concentration: 600 nM
Setting: 8-mer, flanks averaged, mean of replicates
Direction: higher = stronger binding
Oligonucleotide	E-score
CATACTTC	0.21
AATCGTCT	0.0172
CGGCTGTA	-0.225
GGTTGACA	-0.0622
CCCCAGTA	-0.196
CCTCATAC	0.144
ATTTGGCA	0.107
ACTGTGGA	-0.0714
ACTGACCT	-0.0372
CAAACCAA	0.202
CATTATAG	0.268
AGAGGAAT	0.0232
CCTCCGTA	-0.164
GTTTTCCA	0.217
CCAGCGCC	-0.291
ATCTGCGG	0.0257
AATCCGAA	0.0959

Series 4
Target: RING finger protein unkempt homolog, zinc fingers 1-6, GST-SBP tag (UNK, Homo sapiens, UniProt Q9C0B0, residues 30-357)
Method: RNA Bind-n-Seq
Molecule type: RNA
Medium: in vitro
Concentration: not given
Setting: RNA with constant flanks, human-mouse chimeric sites, ends assumed
Baseline: input RNA pool
Direction: higher = stronger binding
Shared flanks, not repeated: GGGAGUUCUACAGUCCGACGAUC … CAACAGAGGAUUGAGCAUCA
Residues (chain): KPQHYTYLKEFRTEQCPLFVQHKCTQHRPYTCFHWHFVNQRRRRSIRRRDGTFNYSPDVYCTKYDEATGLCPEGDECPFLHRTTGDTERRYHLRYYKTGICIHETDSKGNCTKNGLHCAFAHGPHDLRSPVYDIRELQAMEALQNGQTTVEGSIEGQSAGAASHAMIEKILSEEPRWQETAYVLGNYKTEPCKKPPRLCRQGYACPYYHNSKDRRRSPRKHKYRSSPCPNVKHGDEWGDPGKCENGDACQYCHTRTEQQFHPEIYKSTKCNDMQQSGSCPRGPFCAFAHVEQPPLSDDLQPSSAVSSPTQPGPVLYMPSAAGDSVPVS
Oligonucleotide	bound/input enrichment [ratio]
GAUGAUAAUCACACAAAUGUGGCACUUUUACAUGACCAGCCUUGGGAUUCUUCUCCUGAUUAAUAUUCUCCCUGGAACCACUGGUCAAGGGGAAUCAAGACGACAAGAACCCGGGGACUU	0.0964
UACUACUAUGAUGGUGAUAUUGGCAAUUAUUAUUAUGGCCAGGGUCAUCCCAUGAAGCCUCAUAGAAUCCGGAUGACCCAUAACUUGCUGCUAAAUUAUGGUUUAUACCGAAAAAUGGAA	0.224
ACAGUUAUAUUGUUGAGUUUCAUUUUCAUAUAUUCUUGUAGUGUCUGCUUGCCUGUGACUUCUGGUAAAAUAAAAUAAGCCUUUGAAUUAGCAUGCUCAUGGUAUUUUUCUAAAAAUAAA	0.91
UUCAAAGAAAAGGGCAGCUGUGUCAUUACUUGGGAGACUCUGGGGGAUAAGUGGAAGGUUCUUUUGUUUAAUUUUCCCCCAAAUGAAGCCAAAGUGUGUGUUGAAGAACUGAGAAAAAAU	0.17
CUGUGUGUGCUGAAUAAAUGGCUUGUAAAGAAGUUUUCCAAGUUGUAAACCCAUGCUGUUAUUAUAGUUGCUGCAAAAUGUUCUUCCUGAUAUUGAUUUUAUUUGUUAACUGAAGGUCUC	0.486
CUUAAUGUUAAUAUUUUUGAAUAAAUGAAGCUAAAAUUUUGCUUUCUGGUACAACACGCAUUAAUAAAAGGUUAAGUUUUGUUUUCCCUCCACUGAAUAUUUAACAUCUCAGAAAAAAAC	0.661
AGAUAUUAAGUAUUUUGAAAAAACUCGAACAGAUUUGACAAGGGUAGCCAGCUUGGAGUCUAGCAACUUGCCAAUGUGUUUACCAAUCUGGGGGCUUGUUUUUCUUUUCUUCUUUCAAAU	0.377
GGUGGGGUGGUCAUUGCCGUUUGAGCUGCUGAUUUUCAUGAGUCGCCUUCAAAACUCUCGUGUAGGGUUGACACUGUGGGGGGGUGGGAAAUCUAGCUUAUUCUUUUAUUUUCAAGUCCA	5
GACUUUGGGACUGGUCCUCGCAACGCAGCCUUCUAUAGCCCUCAUGGACAUAUAUUAGUGCUGGCUGGAUUUGGAAAUCUGAGGGGACAAAUGGAAGUGUGGGAUGUUAAAAACUACAAG	0.418
CUCUUUGAAUCUUUCAAGAGUUUUGAAGGUCUCUUUUAUUUUCUGGGGUCCAUUGUUAACUUUAGCCAGGACCCAGAUGUGCACUUUAAAUAUAUUCAGGCGGCUUGCAAGACUGGGCAA	0.413
GCUGGAUCUUCUAAGUACCAGUGGGACAUUAUGAAAUCCCUUGGCCUCUCUGAUGACGACAUAGUGAAGUUUUCUGAAGCAGAGCACUGGCUUGAUUAUUUCCCACCACUGGCCGUUCAG	0.122

Series 5
Target: FOS, bZIP domain (human)
Method: DHFR protein complementation
Medium: yeast
Setting: single substitutions, most at no-binding floor
Baseline: wild-type JUN-FOS pair
Direction: higher = stronger binding
Parent: JUN, bZIP domain (human); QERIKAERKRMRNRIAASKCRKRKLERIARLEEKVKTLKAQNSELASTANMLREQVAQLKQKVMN; partner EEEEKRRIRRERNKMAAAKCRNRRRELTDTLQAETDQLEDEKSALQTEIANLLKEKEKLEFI
Variant	binding fitness
A46G	-0.403 natural log
E44N	-0.264 natural log
K34I	-0.369 natural log
A49W	-0.763 natural log
L38R	-1.16 natural log
K36S	-0.0749 natural log
A57D	-0.0169 natural log
S47E	0.118 natural log
A46D	-0.753 natural log
E33P	-1.26 natural log
T37E	0.0721 natural log
Q58T	-0.0468 natural log
E33Y	-0.71 natural log
E54P	-1.14 natural log
T37V	-0.0186 natural log
E44Q	-0.0392 natural log
I28L	-0.0381 natural log

Series 6
Target: Histone acetyltransferase KAT6A, winged helix 2, GST fusion (KAT6A, Homo sapiens, UniProt Q92794, residues 85-181)
Method: protein binding microarray
Molecule type: double-stranded DNA, one strand shown
Medium: in vitro
Concentration: not given
Setting: 8-mer, flanks averaged, mean of 2 arrays, mostly near background
Baseline: not given
Direction: higher = stronger binding
Target sequence (chain): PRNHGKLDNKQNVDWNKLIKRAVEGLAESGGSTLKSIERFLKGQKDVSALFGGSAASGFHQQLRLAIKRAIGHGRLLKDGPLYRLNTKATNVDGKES
Oligonucleotide	E-score
ACTTAAGC	-0.0798
AGCGAGAT	0.12
GATGATAA	0.0918
TATCCAAA	0.113
TAAAGTAA	-0.109
CCTAGAGG	-0.127
GGACGTAC	-0.179
AGCTCATC	-0.0865
CATCGTCG	-0.14
CGTACGAG	-0.146
AAAGGGTT	-0.129
ATAATCGG	0.0735
CGCCATAG	0.0915
ATCATCAA	0.122
ATATATCC	0.105
GCCCCAGA	0.0749
GAAATAAA	0.134
CCCTGCAC	-0.053
AGTTGGAA	0.0799
GCATCGGC	0.128
ACAGTGAA	-0.0281
GACGCCGA	0.148
CTCTAAAA	0.0888
AGCATGCG	0.166
AAGTCTAG	-0.167
